# Assay results collected from several papers.
# Lines come from different studies, so protocols differ. Numbers after ± are the reported error.
Structure (SMILES),assay,test system,setting,how to read,quantity,value
COc1cccc(CN)c1O,,"male C57BL/6 mouse, plasma","intraperitoneal, 200 mg/kg, single dose",,Vd/F,486 L/kg
CC(C)(c1ccc(O)cc1)c1ccc(O)cc1,GC-MS,"exposure tank water with snails, charcoal-filtered tap water","100 ng/L nominal, 22 °C",,half-life,3.03 h
COc1cccc(-c2ccc(NC(=O)C3=C(C(=O)O)CCC3)c(F)c2)c1,,"male human, plasma","oral, 50 mg, multiple doses, once daily",,Vd/F,13 L
COc1cc2c(cc1OC)CN(CCc1ccc(NC(=O)c3cc(OC)c(OC)cc3NC(=O)c3cnc4ccccc4c3)cc1)CC2,,"human, plasma","intravenous infusion, 6 mg/kg",,clearance,226 mL/min
CNC(=O)c1cc(Oc2ccc(NC(=O)Nc3ccc(Cl)c(C(F)(F)F)c3)cc2)ccn1,LC-MS/MS,"nude mouse subcutaneous tumour model, tumour tissue","intratumoral, 2 mg/kg, PDC 1 miR-3609 + EPAS-1 mutant",,t1/2,28.7 ± 2.71 h
NC(=O)c1cnccn1,"cytochrome c release, ELISA",BALB/cByJ female mouse liver mitochondria,30 min,baseline: alamethicin maximal release,EC20,> 400 µM
CNCc1ccc(-c2[nH]c3cc(F)cc4c3c2CCNC4=O)cc1,,"human cancer patients, plasma","intravenous, 4 mg/m2, day 1, added: temozolomide 100",,AUC(0-24 h),205 ng·h/mL
Cc1cc(=O)n(-c2ccccc2)n1C,mitochondrial swelling,BALB/cByJ female mouse liver mitochondria,"30 min, added: succinate + rotenone",baseline: CaCl2 maximal swelling,EC20,> 400 µM
CC(C)(NC(=O)O[C@@H]1CN2CCC1CC2)c1csc(-c2ccc(F)cc2)n1,,"CD-1 mouse, plasma",intravenous,,Vd,6.67 L/kg
CC(=O)N[C@@H](Cc1ccccc1)C(=O)N[C@H]1CCCNC(=O)[C@H](CCCNC(=N)N)NC(=O)[C@H](Cc2c[nH]c3ccccc23)NC(=O)[C@@H](CC2CCCCC2)NC(=O)[C@@H]2CCCN2C1=O,,"C57BL/6J mice, spinal cord","intravenous, 1 mg/kg",,elimination half-life,1.75 h
CC(C)C[C@H](NC(=O)CNC(=O)c1cc(Cl)ccc1Cl)B(O)O,,"human, plasma","intravenous bolus, 0.125 mg/m^2, day 1",,C0,7.43 ng/mL
CCOc1ccc(Cc2cc([C@]34OC[C@](CO)(O3)[C@@H](O)[C@H](O)[C@H]4O)ccc2Cl)cc1,,"human, type 2 diabetes, mild renal impairment, plasma","oral, 15 mg",,AUC,1910 ng·h/mL
CCOC(=O)CN[C@@H](C(=O)N1CC[C@H]1C(=O)NCc1ccc(/C(N)=N\O)cc1)C1CCCCC1,mitochondrial swelling,BALB/cByJ female mouse liver mitochondria,"30 min, added: succinate + rotenone",baseline: CaCl2 maximal swelling,EC20,> 400 µM
CC(C)[C@H](NC(=O)[C@@H]1CCCN1C(=O)[C@H](CCCNC(=N)N)NC(=O)[C@H](CS)NC(=O)[C@H](Cc1c[nH]c2ccccc12)NC(=O)[C@H](CCCNC(=N)N)NC(=O)[C@@H](Cc1ccccc1)NC(=O)[C@H](Cc1c[nH]cn1)NC(=O)[C@H](CCC(=O)O)NC(=O)[C@H](CS)NC(=O)[C@H](CS)NC(=O)[C@H](CCCCN)NC(=O)[C@@H]1CC(=O)N[C@@H](CCCNC(=N)N)C(=O)N[C@@H](C(C)C)C(=O)N[C@@H](CC(=O)O)C(=O)N[C@H](Cc2ccc(O)cc2)C(=O)N1)C(N)=O [technetium-99m labelled],,"C57 mouse, female, B16/F1 melanoma","intravenous, 2 h, added: NDP-MSH 10 µg co-injected",baseline: tumour over liver,uptake ratio,1.14
Cc1c2oc3c(C)ccc(C(=O)N[C@@H]4C(=O)N[C@H](C(C)C)C(=O)N5CCC[C@H]5C(=O)N(C)CC(=O)N(C)[C@@H](C(C)C)C(=O)O[C@@H]4C)c3nc-2c(C(=O)N[C@@H]2C(=O)N[C@H](C(C)C)C(=O)N3CCC[C@H]3C(=O)N(C)CC(=O)N(C)[C@@H](C(C)C)C(=O)O[C@@H]2C)c(N)c1=O,,"mouse, FVB wild type, plasma","intravenous, 0.5 mg/kg",,AUC(0-inf),168 ng·h/mL
